Published values pooled from the literature.
± gives the spread as reported. Converted amounts (≈) assume the structure as drawn.
cyp121: Mycocyclosin synthase (cyp121, Mycobacterium tuberculosis, UniProt P9WPP7)

The chains behind the UniProt entries cited, without tags or fusion partners. Residues count along the entry.
UniProt P9WPP7, whole entry: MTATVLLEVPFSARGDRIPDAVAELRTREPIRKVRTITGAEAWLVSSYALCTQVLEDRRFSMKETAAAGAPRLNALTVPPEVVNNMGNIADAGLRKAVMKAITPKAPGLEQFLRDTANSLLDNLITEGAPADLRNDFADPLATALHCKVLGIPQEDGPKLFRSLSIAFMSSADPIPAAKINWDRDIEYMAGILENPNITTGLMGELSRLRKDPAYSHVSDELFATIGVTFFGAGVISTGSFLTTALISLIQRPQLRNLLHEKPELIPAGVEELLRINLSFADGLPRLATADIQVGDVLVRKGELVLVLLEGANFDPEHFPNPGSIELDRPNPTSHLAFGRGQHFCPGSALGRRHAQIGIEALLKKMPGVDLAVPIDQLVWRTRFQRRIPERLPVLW
UniProt P35353, 24-415 limits assumed: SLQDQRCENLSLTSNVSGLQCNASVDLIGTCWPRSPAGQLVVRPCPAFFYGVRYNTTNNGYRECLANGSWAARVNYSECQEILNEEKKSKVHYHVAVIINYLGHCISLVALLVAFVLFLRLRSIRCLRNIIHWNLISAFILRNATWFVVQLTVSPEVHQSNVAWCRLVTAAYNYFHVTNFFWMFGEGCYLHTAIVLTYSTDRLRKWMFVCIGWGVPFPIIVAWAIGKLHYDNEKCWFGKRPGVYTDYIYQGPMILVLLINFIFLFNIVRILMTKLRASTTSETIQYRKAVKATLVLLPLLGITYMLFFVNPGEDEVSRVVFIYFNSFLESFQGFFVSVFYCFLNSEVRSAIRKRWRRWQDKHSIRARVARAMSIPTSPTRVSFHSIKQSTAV

O=C(NC1CCN(c2ncnc3[nH]cnc23)CC1)c1cccc(NS(=O)(=O)c2ccc([N+](=O)[O-])cc2)c1
inhibition (HCoV-OC43; viral infection; concentration not given): 24.8%

COCCCNc1cc(C(=O)NC2CC3CCC(C2)N3c2ccc(C(=O)NCc3ccccc3)cn2)ccc1C(N)=O (stereo not drawn)
EC50 (Plasmodium berghei; luciferase; Huh-7, ANKA; 44 h post-infection, liver stage): 1200 ± 160 nM

CCC(c1ccc(-c2ccc(F)cc2)cc1)n1ccnc1 (stereo not drawn)
Kd (cyp121; binding): 10100 ± 1500 nM

COc1ccc(S(=O)(=O)Nc2cccc(C(=O)NC3CCN(c4ncnc5[nH]cnc45)CC3)c2)cc1
inhibition (HCoV-OC43; viral infection; concentration not given): 42.2%

CC(CCN[C@H](CN[C@H](CO)CN1CCC[C@H]1CN[C@H](CN)c1ccccc1)c1ccccc1)c1ccccc1 (stereo partly drawn)
potentiation of amikacin (Klebsiella pneumoniae; bacterial growth; 16 µM, fold shift of IC90, together with: amikacin): 1.3 fold

N#Cc1ccc(S(=O)(=O)Nc2cccc(C(=O)NC3CCN(c4ncnc5[nH]cnc45)CC3)c2)cc1
inhibition (HCoV-OC43; viral infection; concentration not given): 70.6%

NCCNCCSc1ccccc1
CL/F (Swiss albino mice, female, plasma; oral, 600 mg/kg): 192 mL/min/kg

NC[C@@H](NC[C@@H]1CCCN1C[C@@H](CO)NC[C@@H](NCCc1ccc(-c2ccccc2)cc1)c1ccccc1)c1ccccc1
IC90 (Escherichia coli; bacterial growth; compound alone): 22300 nM

O=c1c2ccc(Oc3ccc(OC(F)(F)F)cc3)cc2[nH]c2cc(Cl)cc(F)c12
EC50 (Toxoplasma gondii; parasite growth, beta-galactosidase reporter; HFF, RH): 0.03 nM

Nc1cc(S(=O)(=O)O)cc2cc(S(=O)(=O)O)cc(O)c12
MIC of ampicillin (Escherichia coli; bacterial growth, broth microdilution; expressing OXA-48; 16 µg/mL, together with: ampicillin; MIC of ampicillin): 512 µg/mL

O=c1c2ccc(Oc3ccc(OC(F)(F)F)cc3)cc2[nH]c2cc(F)cc(Cl)c12
EC50 (Toxoplasma gondii; parasite growth; RH cytochrome b T222P): 0.704 nM

NC[C@@H](NC[C@@H]1CCCN1C[C@@H](CO)NC[C@@H](NCCC12CC3CC(CC(C3)C1)C2)c1ccccc1)c1ccccc1
potentiation of amikacin (Acinetobacter baumannii; bacterial growth; 16 µM, fold shift of IC90, together with: amikacin): 8.7 fold

COc1cc(-c2ccccc2C)cc(C(C)C#Cc2c(C)nc(N)nc2N)c1 (racemic)
MIC (Candida glabrata; Alamar Blue): 23 µg/mL (≈ 61.7 µM)

C[C@H](CS)C(=O)N[C@H](Cc1c[nH]c2ccccc12)C(=O)O
MIC of meropenem (Enterobacter aerogenes; IMP-1 producing; 50 µM, together with: meropenem): 0.5 µg/mL

CCc1nc(N)nc(N)c1C#C[C@H](C)c1cc(OC)cc(-c2ccncc2)c1
MIC (Staphylococcus aureus; broth microdilution; ATCC 43300 MRSA; 18 h, 37 °C): 0.312 µg/mL (≈ 0.837 µM)

COc1cc(-c2c(C)cccc2C)cc(C(C)C#Cc2c(C)nc(N)nc2N)c1 (racemic)
MIC (Candida glabrata; Alamar Blue): 24 µg/mL (≈ 62.1 µM)

O=C(CCN(CCC(=O)N[C@@H](Cc1c[nH]c2ccccc12)C(=O)O)C(=O)CCN(CCC(=O)N(CCC(=O)N[C@@H](Cc1c[nH]c2ccccc12)C(=O)O)CCC(=O)N[C@@H](Cc1c[nH]c2ccccc12)C(=O)O)C(=O)CCOCC(COCCC(=O)N(CCC(=O)N(CCC(=O)N[C@@H](Cc1c[nH]c2ccccc12)C(=O)O)CCC(=O)N[C@@H](Cc1c[nH]c2ccccc12)C(=O)O)CCC(=O)N(CCC(=O)N[C@@H](Cc1c[nH]c2ccccc12)C(=O)O)CCC(=O)N[C@@H](Cc1c[nH]c2ccccc12)C(=O)O)(COCCC(=O)N(CCC(=O)N(CCC(=O)N[C@@H](Cc1c[nH]c2ccccc12)C(=O)O)CCC(=O)N[C@@H](Cc1c[nH]c2ccccc12)C(=O)O)CCC(=O)N(CCC(=O)N[C@@H](Cc1c[nH]c2ccccc12)C(=O)O)CCC(=O)N[C@@H](Cc1c[nH]c2ccccc12)C(=O)O)COCCC(=O)N(CCC(=O)N(CCC(=O)N[C@@H](Cc1c[nH]c2ccccc12)C(=O)O)CCC(=O)N[C@@H](Cc1c[nH]c2ccccc12)C(=O)O)CCC(=O)N(CCC(=O)N[C@@H](Cc1c[nH]c2ccccc12)C(=O)O)CCC(=O)N[C@@H](Cc1c[nH]c2ccccc12)C(=O)O)N[C@@H](Cc1c[nH]c2ccccc12)C(=O)O
EC50 (Enterovirus A71; viral replication; VP1 S184T P246S resistant): 2400 ± 600 nM

O=S(=O)(O)c1ccc(-c2ccc(S(=O)(=O)O)cc2)cc1
MIC of ampicillin (Escherichia coli; bacterial growth, broth microdilution; expressing OXA-48; 128 µg/mL, together with: ampicillin; MIC of ampicillin): 64 µg/mL

CCC(c1ccc(-c2ccsc2)cc1)n1ccnc1 (stereo not drawn)
Kd (cyp121; binding): 18300 ± 1700 nM

NCc1ccc(-c2ncc(OCC3CCNCC3)nc2-c2ccc(-c3ccoc3)cc2)cc1
reduction in viral RNA (Zika virus; ZIKV-FLR, C57BL/6 mice, interferon receptor knockout, plasma; intraperitoneal, 15 mg/kg every 12 h, 24 h, started 1 h before infection): 96%

N#Cc1cc(S(=O)(=O)Nc2cccc(C(=O)NC3CCN(c4ncnc5[nH]cnc45)CC3)c2)ccc1F
inhibition (HCoV-OC43; viral infection; concentration not given): 45.4%

CC(C)(C)c1ccc(C(=O)Nc2cc(Cl)c(Cl)cc2C(=O)O)cc1
growth inhibition (Trypanosoma brucei; bloodstream form, 90-13; 10 µM): 35 ± 11%

NC[C@@H](NC[C@@H]1CCCN1C[C@@H](CO)NC[C@@H](NCCC1CC2CCC1C2)c1ccccc1)c1ccccc1 (stereo partly drawn)
potentiation of amikacin (Acinetobacter baumannii; bacterial growth; 8 µM, fold shift of IC90, together with: amikacin): 1 fold

O=S(=O)(O)c1ccc2cc(S(=O)(=O)O)ccc2c1
MIC of ampicillin (Escherichia coli; bacterial growth, broth microdilution; expressing OXA-48; 16 µg/mL, together with: ampicillin; MIC of ampicillin): 256 µg/mL

O=c1[nH]c2sc3c(c2c(=O)n1O)CCCC3
EC50 (HIV-1; viral replication, MAGI; P4/R5): 21000 ± 1000 nM

O=S(=O)(O)c1ccc2c(c1)Cc1cc(S(=O)(=O)O)ccc1-2
MIC fold reduction (Escherichia coli; bacterial growth, inhibitor, broth microdilution; expressing OXA-48; 256 µg/mL, together with: ampicillin; relative to: ampicillin alone): 16 fold

Cc1ccccc1S(=O)(=O)Nc1cccc(C(=O)NC2CCN(c3ncnc4[nH]cnc34)CC2)c1
inhibition (HCoV-OC43; viral infection; concentration not given): 62.4%

COCCN(CCOC)c1nc(C)nc2c(-c3c(OC)cc([76Br])cc3OC)c(C)nn12
parent fraction (Corticotropin-releasing factor receptor 1 (Rattus norvegicus, UniProt P35353); TLC; rat, blood; intravenous, 1 h; relative to: radioactivity): < 35%

O=c1c2ccc(Oc3ccc(OC(F)(F)F)cc3)cc2[nH]c2cc(F)cc(F)c12
EC50 (Toxoplasma gondii; parasite growth; RH cytochrome b T222P): 0.08 nM

CC(C)=C1CC[C@]23CO[C@H](C2)[C@@](O)(C(=O)O)CC[C@@H]13
root length (Arabidopsis thaliana; Col-0, seedlings; 50 µg/mL, together with: BCAA): 0.842 cm

CCCCCCCCCCCCNC(=O)N[C@H](C(=O)N[C@H]1/C=C/CCNC(=O)/C=C/[C@H](C)NC1=O)C(C)C
EC50 (Granta bortezomib-resistant; cell viability, CellTiter-Glo; 24 h): 202 ± 10 nM

NC[C@@H](NC[C@@H]1CCCN1C[C@@H](CO)NC[C@@H](NCCc1ccc(Cl)c(Cl)c1)c1ccccc1)c1ccccc1
potentiation of amikacin (Klebsiella pneumoniae; bacterial growth; 16 µM, fold shift of IC90, together with: amikacin): 1.1 fold

C=CC(=O)Nc1cc(-n2c(=O)ccc3cnc4ccc(-c5cn[nH]c5)cc4c32)ccc1C
BTK phosphorylation (Ramos; western blot, refers to: BTK Tyr551 phosphorylation; concentration not given, 4 h): no effect

Repeated from above:
NC[C@@H](NC[C@@H]1CCCN1C[C@@H](CO)NC[C@@H](NCCC1CC2CCC1C2)c1ccccc1)c1ccccc1 (stereo partly drawn)
potentiation of amikacin (Acinetobacter baumannii; bacterial growth; 8 µM, fold shift of IC90, together with: amikacin): 1 fold

O=S(=O)(O)c1ccc2cc(S(=O)(=O)O)ccc2c1
MIC of ampicillin (Escherichia coli; bacterial growth, broth microdilution; expressing OXA-48; 16 µg/mL, together with: ampicillin; MIC of ampicillin): 256 µg/mL

O=c1[nH]c2sc3c(c2c(=O)n1O)CCCC3
EC50 (HIV-1; viral replication, MAGI; P4/R5): 21000 ± 1000 nM

O=S(=O)(O)c1ccc2c(c1)Cc1cc(S(=O)(=O)O)ccc1-2
MIC fold reduction (Escherichia coli; bacterial growth, inhibitor, broth microdilution; expressing OXA-48; 256 µg/mL, together with: ampicillin; relative to: ampicillin alone): 16 fold
